Results gathered from unrelated publications.
“And” joins repeats or separate records; there may be more than shown.
Target: Serine/threonine-protein kinase 38-like (STK38L, Homo sapiens, UniProt Q9Y2H1)

SMILES = CS(=O)(=O)Nc1cccc(-c2csc3cnc(Nc4ccc(N5CCN(CCCCCOc6cccc7c6C(=O)N(C6CCC(=O)NC6=O)C7=O)CC5)cc4)nc23)c1 (centres unmarked); assay = probe labelling, inhibitor, KiNativ chemoproteomics; system = MOLT-4; conditions = 1 µM; quantity = inhibition; value = -14.1%
SMILES = CCN1CCN(Cc2ccc(C(=O)Nc3ccc(C)c(NCc4cnc5[nH]ccc5c4OC)c3)cc2C(F)(F)F)CC1; assay = binding, competition with immobilised ligand; conditions = 1 µM; quantity = remaining binding; value = 93%
SMILES = O=C(Nc1ccc(Oc2ncnc3[nH]cc(-c4ccccc4)c23)c(F)c1)c1c2n(n(-c3cc(F)ccc3F)c1=O)CCCC2; assay = enzyme activity, inhibitor; conditions = 0.5 µM; quantity = inhibition; value = 3%
SMILES = N[C@H]1CC[C@H](Nc2nccc(-c3cccnc3Oc3ccc(NC(=O)NC4CC4)c4ccccc34)n2)CC1; assay = kinobead competition pulldown; system = HEK293/HCT116 lysate mixture; conditions = 10 µM, 1 h, 4 °C; how to read = lower = stronger competition; quantity = log2 LFQ intensity; value = 22.2 and 22 and 22.1
SMILES = Cc1cccc(O[C@H]2CCC[C@@H](C(C)CNCc3ccncc3)C2)c1 (relative stereo); assay = enzyme activity; conditions = 1 µM; quantity = inhibition; value = 2%
SMILES = COc1cc(Nc2nccc(-c3cnn4nc(OC)ccc34)n2)cc(C(F)(F)F)c1; assay = binding, competition with immobilised ligand; conditions = 1 µM; quantity = remaining binding; value = 100%
SMILES = NC(=O)[C@@H](O)C[C@H]1CCc2sc3ncnc(O[C@H]4CC[C@H](N5CCOCC5)CC4)c3c21; assay = enzyme activity, inhibitor; conditions = 10 µM; quantity = inhibition; value = 6%
SMILES = Cc1cnc2nc1Nc1cccc(c1)COC/C=C/COCc1cc(ccc1OCCN1CCOCC1)N2; assay = binding, competition with immobilised ligand; conditions = 0.1 µM; quantity = remaining binding; value = 81%
SMILES = CNC(=O)C[C@H](Cc1ccc(C#N)cc1)NC(=O)c1cc(-c2ccc(CN[C@H](C)c3ccc(C)cc3)o2)ccc1Cl; assay = enzyme activity, inhibitor; conditions = 1 µM; quantity = activity vs control; value = 85%
SMILES = Cc1ccc(C(=O)Nc2ccc(CN3CCN(C)CC3)c(C(F)(F)F)c2)cc1C#Cc1cnc2cccnn12; assay = target engagement, NanoBRET; system = human cells; quantity = upper asymptote; value = 7220
SMILES = Nc1ncc(-c2cc(-c3cnn(CC(F)(F)F)c3)ncc2F)nc1C(=O)NC1CNCC(F)C1 (centres unmarked); assay = enzyme activity; conditions = 1 µM; how to read = reference: DMSO control; quantity = remaining activity; value = 97.3%
SMILES = O=C(Cc1ccc(OCc2ccccc2)cc1)NC1(C(=O)O)CCN(C(=O)c2ccc(-c3cccc(Cl)c3)cc2)CC1; assay = enzyme activity, inhibitor; conditions = 10 µM; quantity = activity vs control; value = 97%
SMILES = COc1c(Cl)cccc1Nc1c(-c2ccncc2C#C[C@@]2(C)CCCN2C(=O)/C=C/CN(C)C)[nH]c2c1C(=O)NCC2; assay = binding, competition with immobilised ligand; conditions = 3 µM; quantity = remaining binding; value = 92%
SMILES = CNC(=O)C1CCN(c2cc(C)c(F)cc2NC(=O)c2ccc(-c3cc(O)ccc3C)c(C)c2)CC1; assay = binding, competition with immobilised ligand; conditions = 1 µM; quantity = remaining binding; value = 97%

Some of these lines once more:
SMILES = Nc1ncc(-c2cc(-c3cnn(CC(F)(F)F)c3)ncc2F)nc1C(=O)NC1CNCC(F)C1 (centres unmarked); assay = enzyme activity; conditions = 1 µM; how to read = reference: DMSO control; quantity = remaining activity; value = 97.3%
